Measured values from different studies.
Compare with care: the assays were run in different laboratories. Several values in a cell are separate wells, animals, samples, runs or records. Numbers after ± are the reported error.
Alpha-amylase: Alpha-amylase (Bos taurus, UniProt Q3MHH8)
USP51: Ubiquitin carboxyl-terminal hydrolase 51 (USP51, Homo sapiens, UniProt Q70EK9)
Chain of UniProt Q70EK9 (whole entry, looked up): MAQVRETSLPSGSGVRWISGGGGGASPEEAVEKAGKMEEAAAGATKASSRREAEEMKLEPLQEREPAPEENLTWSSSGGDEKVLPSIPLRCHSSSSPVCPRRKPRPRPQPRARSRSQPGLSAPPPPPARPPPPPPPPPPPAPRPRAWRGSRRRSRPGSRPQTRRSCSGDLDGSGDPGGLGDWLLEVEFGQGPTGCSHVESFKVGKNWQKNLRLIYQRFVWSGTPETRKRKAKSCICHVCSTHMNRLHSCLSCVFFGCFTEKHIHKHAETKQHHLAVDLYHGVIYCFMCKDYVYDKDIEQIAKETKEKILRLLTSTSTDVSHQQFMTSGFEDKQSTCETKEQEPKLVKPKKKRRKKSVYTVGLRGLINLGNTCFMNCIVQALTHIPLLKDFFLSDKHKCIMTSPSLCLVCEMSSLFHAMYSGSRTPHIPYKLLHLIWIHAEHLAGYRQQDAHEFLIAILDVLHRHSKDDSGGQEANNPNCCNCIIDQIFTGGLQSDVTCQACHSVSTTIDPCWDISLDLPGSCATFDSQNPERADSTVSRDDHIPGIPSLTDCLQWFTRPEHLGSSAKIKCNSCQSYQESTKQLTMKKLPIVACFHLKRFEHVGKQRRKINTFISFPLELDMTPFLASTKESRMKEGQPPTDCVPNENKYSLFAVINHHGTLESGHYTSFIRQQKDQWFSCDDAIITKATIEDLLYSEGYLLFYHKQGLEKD
FFAR4: Free fatty acid receptor 4 (FFAR4, Homo sapiens, UniProt Q5NUL3)
Chain of UniProt Q5NUL3 (whole entry, looked up): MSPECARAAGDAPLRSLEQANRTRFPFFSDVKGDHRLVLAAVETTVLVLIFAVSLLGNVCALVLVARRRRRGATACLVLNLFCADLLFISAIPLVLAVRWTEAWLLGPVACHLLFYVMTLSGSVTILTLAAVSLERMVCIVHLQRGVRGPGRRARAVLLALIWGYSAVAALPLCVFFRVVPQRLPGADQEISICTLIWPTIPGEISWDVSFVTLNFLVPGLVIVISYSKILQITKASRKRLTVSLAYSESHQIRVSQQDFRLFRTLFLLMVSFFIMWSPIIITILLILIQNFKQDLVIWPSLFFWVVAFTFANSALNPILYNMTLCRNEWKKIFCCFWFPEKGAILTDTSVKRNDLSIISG
Trypanothione synthetase: Trypanothione synthetase (Trypanosoma brucei brucei, UniProt Q8IEX1)
Chain of UniProt Q16853 (whole entry, looked up): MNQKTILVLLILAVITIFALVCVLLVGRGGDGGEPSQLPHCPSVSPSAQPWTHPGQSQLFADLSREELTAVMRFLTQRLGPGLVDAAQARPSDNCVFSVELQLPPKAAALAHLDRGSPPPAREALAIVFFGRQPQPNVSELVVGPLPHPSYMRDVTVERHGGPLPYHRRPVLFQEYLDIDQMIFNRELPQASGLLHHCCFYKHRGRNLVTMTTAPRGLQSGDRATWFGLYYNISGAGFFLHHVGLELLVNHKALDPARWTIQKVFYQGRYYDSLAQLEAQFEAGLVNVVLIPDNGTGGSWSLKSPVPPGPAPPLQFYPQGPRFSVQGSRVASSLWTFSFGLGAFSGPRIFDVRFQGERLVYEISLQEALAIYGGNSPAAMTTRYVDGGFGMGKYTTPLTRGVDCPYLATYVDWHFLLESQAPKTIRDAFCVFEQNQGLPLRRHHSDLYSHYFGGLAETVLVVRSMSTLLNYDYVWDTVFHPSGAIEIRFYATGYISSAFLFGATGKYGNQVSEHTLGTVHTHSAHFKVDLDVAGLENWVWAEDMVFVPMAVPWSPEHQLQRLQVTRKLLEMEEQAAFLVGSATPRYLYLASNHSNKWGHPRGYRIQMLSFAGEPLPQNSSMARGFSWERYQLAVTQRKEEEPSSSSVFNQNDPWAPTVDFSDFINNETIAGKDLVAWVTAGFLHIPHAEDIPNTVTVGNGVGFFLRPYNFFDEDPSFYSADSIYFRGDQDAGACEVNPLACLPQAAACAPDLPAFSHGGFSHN
Chain of UniProt P06239 (whole entry, looked up): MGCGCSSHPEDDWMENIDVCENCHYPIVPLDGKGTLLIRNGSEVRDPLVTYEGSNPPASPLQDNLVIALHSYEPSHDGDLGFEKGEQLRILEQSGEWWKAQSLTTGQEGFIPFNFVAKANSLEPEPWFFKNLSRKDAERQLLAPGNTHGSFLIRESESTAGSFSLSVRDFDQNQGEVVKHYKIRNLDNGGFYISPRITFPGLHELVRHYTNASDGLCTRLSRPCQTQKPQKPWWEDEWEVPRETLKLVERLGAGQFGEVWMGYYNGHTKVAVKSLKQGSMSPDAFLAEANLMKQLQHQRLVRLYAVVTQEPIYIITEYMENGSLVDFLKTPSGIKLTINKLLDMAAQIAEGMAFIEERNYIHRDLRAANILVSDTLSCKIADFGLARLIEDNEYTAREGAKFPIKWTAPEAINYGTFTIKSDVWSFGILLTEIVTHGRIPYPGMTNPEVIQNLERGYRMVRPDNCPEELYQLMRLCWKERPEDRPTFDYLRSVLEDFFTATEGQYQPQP
Chain of UniProt P33533 (whole entry, looked up): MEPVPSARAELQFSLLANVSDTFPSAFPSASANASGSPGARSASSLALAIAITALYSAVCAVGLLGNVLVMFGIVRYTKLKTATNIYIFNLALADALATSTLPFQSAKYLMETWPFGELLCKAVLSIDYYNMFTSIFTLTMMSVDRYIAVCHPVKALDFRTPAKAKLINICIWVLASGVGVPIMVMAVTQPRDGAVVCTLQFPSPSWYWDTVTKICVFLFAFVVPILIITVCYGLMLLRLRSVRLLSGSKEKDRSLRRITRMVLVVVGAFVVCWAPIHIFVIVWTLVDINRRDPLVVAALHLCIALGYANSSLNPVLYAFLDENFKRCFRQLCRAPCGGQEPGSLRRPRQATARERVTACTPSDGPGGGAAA
Chain of UniProt P56373 (whole entry, looked up): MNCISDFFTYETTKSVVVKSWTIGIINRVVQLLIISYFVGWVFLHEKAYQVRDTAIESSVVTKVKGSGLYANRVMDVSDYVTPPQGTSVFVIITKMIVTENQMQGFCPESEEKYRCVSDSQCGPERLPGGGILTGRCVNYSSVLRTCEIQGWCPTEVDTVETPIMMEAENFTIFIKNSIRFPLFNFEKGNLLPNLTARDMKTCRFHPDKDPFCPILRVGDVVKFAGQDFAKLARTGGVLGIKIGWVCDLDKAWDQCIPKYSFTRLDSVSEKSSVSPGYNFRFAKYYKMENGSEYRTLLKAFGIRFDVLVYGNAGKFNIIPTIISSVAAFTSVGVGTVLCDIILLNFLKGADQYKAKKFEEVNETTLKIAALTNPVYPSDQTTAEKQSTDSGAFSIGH
Chain of UniProt Q6W5P4 (whole entry, looked up): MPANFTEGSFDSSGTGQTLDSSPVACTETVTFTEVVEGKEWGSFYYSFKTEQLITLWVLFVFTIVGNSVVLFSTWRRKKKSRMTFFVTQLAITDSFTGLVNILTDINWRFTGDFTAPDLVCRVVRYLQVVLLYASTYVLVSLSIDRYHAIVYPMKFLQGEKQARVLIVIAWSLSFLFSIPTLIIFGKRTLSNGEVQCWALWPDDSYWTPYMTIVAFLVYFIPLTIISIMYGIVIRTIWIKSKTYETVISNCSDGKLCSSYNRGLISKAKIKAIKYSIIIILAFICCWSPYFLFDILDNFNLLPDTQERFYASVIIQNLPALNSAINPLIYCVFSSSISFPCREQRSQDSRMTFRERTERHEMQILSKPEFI
Chain of UniProt Q5TCX8 (whole entry, looked up): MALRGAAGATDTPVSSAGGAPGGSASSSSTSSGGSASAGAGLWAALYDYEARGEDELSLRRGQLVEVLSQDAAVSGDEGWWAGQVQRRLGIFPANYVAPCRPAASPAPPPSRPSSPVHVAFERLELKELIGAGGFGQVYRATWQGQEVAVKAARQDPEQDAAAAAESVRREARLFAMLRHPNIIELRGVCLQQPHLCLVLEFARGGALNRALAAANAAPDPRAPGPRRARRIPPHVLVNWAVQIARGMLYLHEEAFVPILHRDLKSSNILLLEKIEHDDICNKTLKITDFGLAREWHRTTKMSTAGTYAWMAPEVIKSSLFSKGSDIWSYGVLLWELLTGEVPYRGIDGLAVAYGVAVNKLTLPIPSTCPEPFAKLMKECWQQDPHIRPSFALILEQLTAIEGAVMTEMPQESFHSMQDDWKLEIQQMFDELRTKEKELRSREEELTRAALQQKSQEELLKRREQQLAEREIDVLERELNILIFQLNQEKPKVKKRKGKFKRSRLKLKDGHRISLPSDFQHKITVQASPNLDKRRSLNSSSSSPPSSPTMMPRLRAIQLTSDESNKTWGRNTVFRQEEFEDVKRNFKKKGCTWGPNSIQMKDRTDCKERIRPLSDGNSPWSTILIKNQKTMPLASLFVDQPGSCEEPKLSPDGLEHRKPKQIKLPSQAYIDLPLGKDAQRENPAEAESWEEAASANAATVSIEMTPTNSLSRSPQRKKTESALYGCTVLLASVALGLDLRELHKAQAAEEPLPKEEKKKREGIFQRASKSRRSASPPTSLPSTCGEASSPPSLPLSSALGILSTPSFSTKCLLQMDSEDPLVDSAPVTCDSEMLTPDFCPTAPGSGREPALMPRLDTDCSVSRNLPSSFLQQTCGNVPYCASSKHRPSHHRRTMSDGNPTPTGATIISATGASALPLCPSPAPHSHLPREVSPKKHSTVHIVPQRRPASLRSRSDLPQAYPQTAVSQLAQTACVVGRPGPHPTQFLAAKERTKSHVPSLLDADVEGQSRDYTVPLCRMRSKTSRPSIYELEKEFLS
Chain of UniProt P30874 (whole entry, looked up): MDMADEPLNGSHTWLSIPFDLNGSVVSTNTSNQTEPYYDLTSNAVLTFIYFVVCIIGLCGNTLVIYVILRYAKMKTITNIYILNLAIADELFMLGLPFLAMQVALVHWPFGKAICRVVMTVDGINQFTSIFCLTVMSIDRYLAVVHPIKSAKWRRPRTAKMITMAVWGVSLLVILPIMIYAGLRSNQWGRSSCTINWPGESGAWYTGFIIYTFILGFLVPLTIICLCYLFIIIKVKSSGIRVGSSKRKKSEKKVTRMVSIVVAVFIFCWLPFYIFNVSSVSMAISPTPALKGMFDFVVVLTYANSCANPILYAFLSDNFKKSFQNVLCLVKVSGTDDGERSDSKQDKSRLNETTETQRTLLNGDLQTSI

Compound = CC1=NN(c2ccc(C)cc2)C(=O)C1=NNc1ccc(S(N)(=O)=O)cc1; target = Alpha-amylase; test = enzyme activity, inhibitor, glucose oxidase; conditions = 500 µg/mL, together with: dextrin; inhibition = 31.7%
Compound = Cn1cc(-c2cnc3ccc(NC(=O)Nc4ccc(F)c(Br)c4)cc3n2)cn1; target = TBK1 (Homo sapiens, UniProt Q9UHD2); test = kinase binding, KiNativ profiling, refers to: Lys1 peptide; system = PANC-1 lysate; conditions = 7.5 µM; inhibition = 5.5%
Compound = COc1cc(C(=O)OCCCN2CCCN(CCCOC(=O)c3cc(OC)c(OC)c(OC)c3)CC2)cc(OC)c1OC; target = Equilibrative nucleoside transporter 2 (Homo sapiens, UniProt Q14542); test = nucleoside transport, inhibitor; system = MDCKII cells expressing ENT2; conditions = 316 µM, together with: adenosine; inhibition = 97.1% and 97.2%
Compound = O=c1ccc2ccc(O)c(O)c2o1; target = USP51; test = inhibitor; conditions = 1 µM, 1 h preincubation, together with: Ub-AMC 250 nM; inhibition = 73%
Compound = CC(C)(C)c1ccc(CCNc2cc(=O)[nH]c(=O)[nH]2)cc1; target = FFAR4; test = antagonist, β-arrestin recruitment; system = CHO cells; conditions = 10 µM, together with: 4 µM TUG-891; inhibition = -8 ± 12%
Compound = O=C(O)C1=CC(=C(c2ccc(O)c(C(=O)O)c2)c2ccc(O)c(C(=O)O)c2)C=CC1=O; target = P2X purinoceptor 3 (P2RX3, Homo sapiens, UniProt P56373); test = ion current, antagonist, patch clamp; system = HEK293; conditions = 400 nM, together with: ATP4- 1 µM; inhibition = 29.9 ± 4.1%
Compound = COc1cc(C(=O)NS(=O)(=O)c2ccccc2C)ccc1Cc1cn(C)c2ccc(NC(=O)OC3CCCC3)cc12; target = LRRC8A/LRRC8C (Homo sapiens, UniProt Q8IWT6+Q8TDW0, M48D/T48D); test = ion current, inhibitor, whole-cell patch clamp; system = HCT116 LRRC8 knockout, transfected; conditions = 100 µM, +100 mV, mutant T48D/M48D; inhibition = 71.5%
Compound = CC1=NN(c2ccc(F)cc2)C(=O)C1=NNc1ccc(S(N)(=O)=O)cc1; target = Alpha-amylase; test = enzyme activity, inhibitor, glucose oxidase; conditions = 500 µg/mL, together with: dextrin; inhibition = 13.8%
Compound = CC(C)(C)NC(=O)CN1C(=O)Cc2c([nH]c3ccc(Br)cc23)-c2ccc(Cl)cc21; target = Trypanothione synthetase; test = enzyme activity, inhibitor, BIOMOL Green; conditions = 30 µM; inhibition = 10.9 ± 6.8%
Compound = CCCCCCCCNc1cc(=O)[nH]c(=O)n1C; target = FFAR4; test = antagonist, β-arrestin recruitment; system = CHO cells; conditions = 10 µM; inhibition = 25 ± 9%
Compound = CC1=NN(c2ccc(Cl)cc2)C(=O)C1=NNc1ccc(S(N)(=O)=O)cc1; target = Alpha-amylase; test = enzyme activity, inhibitor, glucose oxidase; conditions = 500 µg/mL, together with: dextrin; inhibition = 14.4%
Compound = O=C(NO)c1ccc(CN2CCCCc3ccccc32)c(F)c1; target = CHRM2 (Homo sapiens, UniProt P08172); test = radioligand binding, radioligand displacement; conditions = 10 µM; inhibition = -40.8%
Compound = CC[C@@]1(CC(=O)NC2CCCC2)CCCN2CCc3c([nH]c4ccccc34)[C@@H]21; target = Neuropeptide S receptor, isoform B (NPSR1, Homo sapiens, UniProt Q6W5P4); test = beta-arrestin recruitment, antagonist, PathHunter chemiluminescence; conditions = 20 µM, together with: agonist at EC80; inhibition = -27%
Compound = CCCCC(CC)CNc1cc(=O)[nH]c(=O)[nH]1 (racemic); target = FFAR4; test = antagonist, β-arrestin recruitment; system = CHO cells; conditions = 10 µM, together with: 4 µM TUG-891; inhibition = -13 ± 7%
Compound = C[C@H]1c2nn(C)cc2[C@H]2C[C@@H]1N(Cc1ccccc1)C[C@]2(C)O; target = Oprd1 (Rattus norvegicus, UniProt P33533); test = binding; system = rat brain; conditions = 1 µM, together with: [3H]DPDPE; inhibition = 0%
Compound = Cc1nn(-c2nc3c(F)cc(F)cc3s2)c(O)c1C(c1cccc(C(F)(F)F)c1)c1c(C)nn(-c2nc3c(F)cc(F)cc3s2)c1O; target = Cyclic GMP-AMP synthase, catalytic domain; with DNA (CGAS, Homo sapiens, UniProt Q8N884); test = cGAS phase separation, inhibitor; conditions = 3.125 µM; inhibition = 28.4%
Compound = CCCCCCCNc1cc(=O)[nH]c(=O)[nH]1; target = FFAR4; test = antagonist, β-arrestin recruitment; system = CHO cells; conditions = 10 µM; inhibition = 18 ± 1%
Compound = O=C(CN1C(=O)Cc2c([nH]c3ccc(Br)cc23)-c2ccc(Cl)cc21)Nc1ncco1; target = Trypanothione synthetase; test = enzyme activity; system = Trypanosoma brucei; conditions = 30 µM; inhibition = 12.2 ± 6.5%
Compound = NC/C(=C\F)COc1cccc(Cn2c(=S)[nH]c(=O)c3[nH]cnc32)c1; target = AOC3 (Homo sapiens, UniProt Q16853); test = H2O2 production, Amplex Red; conditions = 0.3704 µM, recombinant human enzyme; inhibition = 98.9%
Compound = CC1=NN(c2ccccn2)C(=O)C1=NNc1ccc(S(N)(=O)=O)cc1; target = Alpha-amylase; test = enzyme activity, inhibitor, glucose oxidase; conditions = 10 µg/mL, together with: dextrin; inhibition = 5.3743 ± 0.000287%
Compound = CC[C@@H]1[C@H](F)C(=O)N[C@@H]1COc1nccc2cc(C(N)=O)c(OC)cc12; target = MAP3K21 (Homo sapiens, UniProt Q5TCX8); test = ATP-site probe binding, ActivX profiling, refers to: MLK4; system = THP-1 cell lysate; conditions = 0.04 mM, Lys2 site; inhibition = 2%
Compound = CC1=NN(c2cccc([N+](=O)[O-])c2)C(=O)C1=NNc1ccc(S(N)(=O)=O)cc1; target = Alpha-amylase; test = enzyme activity, inhibitor, glucose oxidase; conditions = 50 µg/mL, together with: dextrin; inhibition = 6.53%
Compound = CC(C)c1noc2ncc(C(=O)c3ccccc3O)cc12; target = CACNA1G (Homo sapiens, UniProt O43497); test = ion current, whole-cell patch-clamp; conditions = 10 µM, hCav3.1; inhibition = 9.33%
Compound = CN1CCN(c2cc(-c3ccncc3)c(-c3ccc4ccccc4c3)nn2)CC1; target = SSTR2 (Homo sapiens, UniProt P30874); test = antagonist, FLIPR; conditions = 10 µM; inhibition = 28.7%
Compound = O=c1cc(NCCc2ccccc2F)[nH]c(=O)[nH]1; target = FFAR4; test = antagonist, β-arrestin recruitment; system = CHO cells; conditions = 10 µM, together with: 4 µM TUG-891; inhibition = 15 ± 4%
Compound = CC1=NN(c2cc(Cl)ccc2Cl)C(=O)C1=NNc1ccc(S(N)(=O)=O)cc1; target = Alpha-amylase; test = enzyme activity, inhibitor, glucose oxidase; conditions = 100 µg/mL, together with: dextrin; inhibition = 18%
Compound = O=c1cc(NCCc2cccc(Cl)c2)[nH]c(=O)[nH]1; target = FFAR4; test = antagonist, β-arrestin recruitment; system = CHO cells; conditions = 10 µM; inhibition = 7 ± 5%
Compound = CCc1oc2ccccc2c1C(=O)c1cc(Br)c(O)c(Br)c1; target = SLC22A12 (Homo sapiens, UniProt Q96S37, T217A); test = uric acid uptake; system = HEK293T transfected with SLC22A12 T217A; conditions = 0.5 µM, 10 min, 37 °C, together with: [14C]urate 200 µM; inhibition = 69.5% and 61.8% and 72.5%
Compound = CCCCCCNc1[nH]c(=O)[nH]c(=O)c1Br; target = FFAR4; test = antagonist, β-arrestin recruitment; system = CHO cells; conditions = 10 µM; inhibition = 6 ± 4%
Compound = CC1=NNC(=O)C1=NNc1ccc(S(N)(=O)=O)cc1; target = Alpha-amylase; test = enzyme activity, inhibitor, glucose oxidase; conditions = 500 µg/mL, together with: dextrin; inhibition = 34.7%
Compound = [2H]c1cc(C)c(NC(=O)c2cnc(Nc3cc(N4CCC(O)CC4)nc(C)n3)s2)c(Cl)c1; target = LCK (Homo sapiens, UniProt P06239); conditions = 0.001 µM; inhibition = > 50%
Compound = CC(C)CNc1cc(=O)[nH]c(=O)[nH]1; target = FFAR4; test = antagonist, β-arrestin recruitment; system = CHO cells; conditions = 10 µM; inhibition = 20 ± 2%
Compound = O=c1c(O)c(-c2ccc(O)c(O)c2)oc2cc(O)cc(O)c12; target = USP51; test = inhibitor; conditions = 1 µM, 1 h preincubation, together with: Ub-AMC 250 nM; inhibition = 70%

A few entries again:
Compound = CN1CCN(c2cc(-c3ccncc3)c(-c3ccc4ccccc4c3)nn2)CC1; target = SSTR2 (Homo sapiens, UniProt P30874); test = antagonist, FLIPR; conditions = 10 µM; inhibition = 28.7%
Compound = O=c1cc(NCCc2ccccc2F)[nH]c(=O)[nH]1; target = FFAR4; test = antagonist, β-arrestin recruitment; system = CHO cells; conditions = 10 µM, together with: 4 µM TUG-891; inhibition = 15 ± 4%
Compound = CC1=NN(c2cc(Cl)ccc2Cl)C(=O)C1=NNc1ccc(S(N)(=O)=O)cc1; target = Alpha-amylase; test = enzyme activity, inhibitor, glucose oxidase; conditions = 100 µg/mL, together with: dextrin; inhibition = 18%
